Measurements collected from several papers.
Parts stem from different laboratories: compare values within a part only.

Block 1
Target: PABPC1L2, full length, GST fusion (mouse, UniProt A0ABA7IW68)
Technique: RNAcompete
Form: RNA
Medium: in vitro
Concentration: 20 nM
Setting: 7-mer, probes averaged, single round
Relative to: mean of 7-mers
Reading: higher = stronger binding
Residues (chain): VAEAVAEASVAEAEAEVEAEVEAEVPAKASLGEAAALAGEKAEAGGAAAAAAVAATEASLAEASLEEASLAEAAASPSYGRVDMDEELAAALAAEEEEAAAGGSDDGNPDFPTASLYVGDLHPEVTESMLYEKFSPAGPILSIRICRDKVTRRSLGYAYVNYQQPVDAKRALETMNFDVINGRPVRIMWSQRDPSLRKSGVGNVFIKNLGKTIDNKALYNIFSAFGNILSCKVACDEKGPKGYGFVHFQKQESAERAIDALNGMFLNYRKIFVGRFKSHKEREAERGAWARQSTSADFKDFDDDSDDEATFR
| Sequence | 7-mer Z-score |
| --- | --- |
| UUCCAAC | -0.229 |
| ACGUAUC | -0.235 |
| UCGCUUG | -0.458 |

Block 2
Target: Phosphate system positive regulatory protein PHO4, full length, GST-tagged (PHO4, Saccharomyces cerevisiae, UniProt P07270, residues 1-312)
Technique: competition protein-binding microarray
Form: double-stranded DNA, one strand shown
Medium: in vitro
Concentration: 2 µM
Setting: whole 60-bp probe, lowest competitor level
Together with: Cbf1 competitor, 0.05 µM
Reading: higher = stronger binding
Constant ends, left off below: … GTCTTGATTCGCTTGACGCTGCTG
Target sequence (chain): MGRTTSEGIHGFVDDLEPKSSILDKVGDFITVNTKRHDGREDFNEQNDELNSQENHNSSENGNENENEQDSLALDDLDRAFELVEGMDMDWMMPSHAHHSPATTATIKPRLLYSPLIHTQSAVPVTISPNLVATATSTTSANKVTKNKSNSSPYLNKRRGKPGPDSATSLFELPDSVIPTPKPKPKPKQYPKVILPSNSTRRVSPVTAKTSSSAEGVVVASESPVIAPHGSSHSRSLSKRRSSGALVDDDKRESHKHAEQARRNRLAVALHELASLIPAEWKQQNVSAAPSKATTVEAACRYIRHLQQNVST
| Sequence | fluorescence intensity [a.u.] |
| --- | --- |
| AAGTAGGAGTATAAGAGCGTGGGTAAACACAAAATG | 8320 |
| AGGAACCTCAATCGGCACGGCCAACTCGCAAGCGCA | 4360 |
| TCATGCTAAAAATGAGGCGTGGGACAATATTCAGTA | 8280 |
| CGGGGTTAAGTTTGCGTCGTGGGTGGCTTGCAGCAG | 7660 |
| CCGGTTTAACCCCCCGGCGTGCTTTGGTAGGTGCCC | 6840 |

Block 3
Target: Histone acetyltransferase KAT6A, winged helix 2, GST fusion (KAT6A, Homo sapiens, UniProt Q92794, residues 85-181)
Technique: protein binding microarray
Form: double-stranded DNA, one strand shown
Medium: in vitro
Concentration: not given
Setting: 8-mer, flanks averaged, mean of 2 arrays, mostly near background
Relative to: not given
Reading: higher = stronger binding
Target sequence (chain): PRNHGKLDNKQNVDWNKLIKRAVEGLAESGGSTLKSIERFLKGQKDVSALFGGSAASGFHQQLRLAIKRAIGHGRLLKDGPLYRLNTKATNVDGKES
| Sequence | E-score |
| --- | --- |
| ATTCTACA | 0.0262 |
| CCAGTACA | -0.0819 |
| AGCGACGA | 0.0692 |
| ATACCTAC | -0.0311 |
| GGTGCCAC | 0.119 |

Mixed results
| Molecule | target | assay | test system | conditions | scale | quantity | result |
| --- | --- | --- | --- | --- | --- | --- | --- |
| PhoQ, residues 284 288 289 292 302 303 QWGLFV | PhoP, residues 12 14 15 18 19 NFCKL (Escherichia coli, UniProt P23836) | Sort-seq, refers to: YFP reporter | E. coli | PhoQ-PhoP variant library, together with: 10 µM Mg2+ | relative to: high Mg2+ state, higher = stronger signaling | fold induction | 0.786 |

A few entries again (block 1):
| Sequence | 7-mer Z-score |
| --- | --- |
| ACGUAUC | -0.235 |
